Experimental data pooled from the literature.
Each line is one published result; not all experiments were run side by side. “And” joins repeats or separate records; there may be more than shown. Numbers after ± are the reported error. ≈ marks a conversion by molar mass, not a printed value.

SMILES | tested on | assay | test system | conditions | how to read | quantity | value
CC(C)n1ncc2c(C(=O)NCC3(C)CNC3)cc(C3CC3)nc21 | Enterovirus D68 | viral replication, plaque | US/MO/14-18947 recombinant wild type |  |  | EC50 | 130 nM
OC(Cn1cncn1)(Cn1cncn1)c1ccc(F)cc1F | Saccharomyces cerevisiae | cell growth | Pdr5 deleted, Cdr1 overexpressed | 2^6.644 µg/mL |  | OD600 | 0.072 and 0.114 and 0.143
CC(/N=N/c1ccc(F)cc1)=C1SCCCS1 | Schistosoma mansoni | microscopic viability scoring | newly transformed schistosomula | 10 µM, 72 h, prescreen |  | viability reduction | 100%
CNc1ncc2c(/C=C/C(=O)N3CCC4(CC3)OCCO4)nn(Cc3cccc(C)c3)c2n1 | CP-A pre-malignant | cell viability, PrestoBlue |  | 120 h |  | EC50 | 1360 nM
CCCCN1CCCC[C@H]1C(=O)Nc1c(C)cccc1C | sodium channel (rat) | peak sodium current, blocker, whole-cell patch clamp | GH3 | tonic block |  | Kd | 107000 ± 10000 nM
CC[C@H](C)[C@H](NC(=O)[C@H](CCCCN)NC(=O)[C@@H](NC(=O)[C@@H](NC(=O)[C@H](CC(C)C)NC(=O)[C@H](CCCNC(=N)N)NC(=O)[C@@H](NC(=O)[C@H](CC(C)C)NC(=O)[C@H](CCCNC(=N)N)NC(=O)CNC(=O)[C@H](Cc1ccccc1)NC(=O)[C@@H](N)CCCNC(=N)N)[C@@H](C)CC)[C@@H](C)CC)C(C)C)C(=O)N[C@@H](C)C(=O)N[C@@H](CCCNC(=N)N)C(=O)N[C@@H](CCCNC(=N)N)C(=O)N[C@@H](C)C(=O)N[C@@H](Cc1c[nH]cn1)C(=O)N[C@@H](CCCNC(=N)N)C(=O)N[C@@H](C)C(=O)N[C@@H](CCCNC(=N)N)C(=O)N[C@@H](CO)C(=O)N[C@@H](C)C(=O)N[C@H](C(=O)N[C@@H](CCCCN)C(=O)N[C@@H](C)C(=O)N[C@@H](C)C(=O)N[C@@H](CO)C(=O)N[C@@H](CC(N)=O)C(=O)N[C@H](C(=O)N[C@@H](C)C(=O)N[C@@H](CCC(=O)O)C(=O)N[C@@H](CC(C)C)C(=O)N[C@@H](C)C(=O)N[C@@H](Cc1c[nH]cn1)C(=O)NCC(=O)N[C@@H](CCC(=O)O)C(=O)O)C(C)C)C(C)C | SH-SY5Y | membrane disruption |  |  |  | EC50 | ≥ 190 nM
O=C1Cc2cccc3[nH]c4c(c23)C2CC(CCN12)C4 (stereo not shown) | Schistosoma mansoni | microscopic viability scoring | newly transformed schistosomula | 10 µM, 72 h, prescreen |  | viability reduction | 4.2%
CC[C@H](C)[C@@H]1NC(=O)[C@@H]2CCCN2C(=O)[C@H](CC(C)C)NC(=O)[C@H](CC(C)C)NC(=O)CNC(=O)[C@@H](NC(=O)[C@@H](NC(=O)[C@H](CC(=O)O)NC(=O)CNC(=O)[C@@H](NC(=O)[C@H](C)NC(=O)CNC(=O)[C@H](CCCCN)NC(=O)[C@H](CC(C)C)NC(=O)[C@H](CC(C)C)NC(=O)[C@H](CCCCN)NC(=O)CNC(=O)[C@@H](NC(=O)[C@@H](N)CC(C)C)C(C)C)C(C)C)C(C)C)CSSC[C@@H](C(=O)O)NC1=O |  | RNA-seq, refers to: Mgst2 | mouse, traumatic brain injury model, frontal cortex and hippocampus | dose not given | reference: TBI alone | log2 fold change | -3.06
COc1cccc2c1C(O)CC(C)(C(O)/C=C/C(=O)OC(C)(C)C)O2 (stereo not shown) | Schistosoma mansoni | microscopic viability scoring | newly transformed schistosomula | 10 µM, 72 h, prescreen |  | viability reduction | 48.3%
COc1c(CCC[P+](c2ccccc2)(c2ccccc2)c2ccccc2)cc2c(c1OC)OCO2.[I-] | HT-29 | SRB |  |  |  | GI50 | -5.97 log M
CC(C)C[C@@H]1NC(=O)[C@@H](Cc2ccccc2)NC(=O)[C@H](CCN)NC(=O)[C@@H](NC(=O)[C@H](CCN)NC(=O)[C@@H](N)[C@@H](C)O)CCNC(=O)[C@H]([C@@H](C)O)NC(=O)[C@H](CCN)NC(=O)[C@H](CCN)NC1=O | Escherichia coli |  | BW25113 | added: novobiocin, lowest FICI |  | MIC | 12.5 µg/mL
COc1ccc(-n2nc(C(C)=O)s/c2=N\N=C(/C)c2ccc(NC(C)=O)cc2)cc1 | HepG2 |  |  | 1.25 µM |  | viability | 5.18%
Clc1ccc(-c2ccccc2Cl)cc1 | gap junction, rat | gap junctional communication, scrape loading dye transfer | WB-F344 rat liver epithelial | 1 h |  | IC50 | 27000 nM
CC[C@H](C)[C@H](NC(=O)[C@H](C)NC(=O)[C@H](CCCCN)NC(=O)[C@H](CC(C)C)NC(=O)[C@H](C)NC(=O)[C@@H](NC(=O)[C@H](Cc1c[nH]cn1)NC(=O)[C@H](CC(C)C)NC(=O)[C@@H](NC(=O)[C@@H](NC(=O)[C@H](CCCCN)NC(=O)[C@H](C)NC(=O)[C@H](C)NC(=O)[C@H](CO)NC(=O)[C@H](CCCCN)NC(=O)[C@H](Cc1ccccc1)NC(=O)[C@@H](NC(=O)[C@H](CCCCN)NC(=O)[C@H](CC(C)C)NC(=O)[C@H](Cc1ccccc1)NC(=O)[C@H](CO)NC(=O)[C@H](CCCCN)NC(=O)[C@H](Cc1c[nH]c2ccccc12)NC(=O)[C@H](CCCCN)NC(C)=O)[C@@H](C)O)[C@@H](C)O)C(C)C)[C@@H](C)O)C(=O)N[C@@H](CO)C(=O)N[C@@H](CO)C(N)=O | Streptococcus pyogenes |  | erythromycin-resistant | 19 strains |  | MBC90 | 64 µg/mL (≈ 21.8 µM)
CCOC(=O)C1CC(c2c[nH]c3ccccc23)c2c(ccc3c2OCO3)N1 (stereo not shown) | Schistosoma mansoni | microscopic viability scoring | newly transformed schistosomula | 10 µM, 72 h, prescreen |  | viability reduction | 23.3%
CCCCC1(CCCC)CN(c2ccccc2)c2cc(SC)c(OCC(=O)N[C@@H](C(=O)NCC(=O)O)c3ccccc3)cc2S(=O)(=O)C1 |  | refers to: LDL cholesterol | human, serum | 5 mg once daily, day 2 |  | serum LDL-C | 121 mg/dL
CC[C@@H](C)[C@@H](NC(=O)[C@@H](Cc1ccc(O)cc1)NC(=O)[C@H]1CCCN1C(=O)[C@@H](CCCNC(=N)N)NC(=O)[C@H](N)Cc1c[nH]cn1)C(=O)N[C@H](C)C(=O)N[C@H](Cc1c[nH]cn1)C(=O)N[C@H](CCCNC(=N)N)C(=O)N[C@H](CCCCNC(=O)c1cccc(S(=O)(=O)F)c1)C(=O)N[C@H](Cc1ccc(O)cc1)C(=O)N[C@H](CO)C(=O)N[C@H](Cc1ccccc1)C(N)=O |  | ex vivo flow cytometry | GL261-Luc brain tumour mice, cervical lymph node | dose not given |  | IFN-γ+ CD8+ T cell frequency | 8.94% and 9.18% and 9.66% and 9.35%
CN1C(=O)CN=C(c2ccccc2)c2cc(Cl)ccc21 | GABAA receptor benzodiazepine site, rat brain | radioligand binding |  | added: flunitrazepam |  | IC50 | 19 nM
COc1cc(CCC[P+](c2ccccc2)(c2ccccc2)c2ccccc2)c(OC)c2c1OCO2.[I-] | SF-539 | SRB |  |  |  | TGI | -4.9 log M
O=P1(N(CCCl)CCCl)NC(OO)CCO1 (stereo not shown) | HD-MB03 |  |  |  | reference: DMSO | IC50 | inactive
CS(=O)(=O)CCCn1c(Cn2c(=O)n(CC(F)(F)F)c3ccncc32)cc2cc(Cl)ccc21 | respiratory syncytial virus | RT-qPCR | hospitalized infants 1-24 months, nasal swab | oral, 9, 6 or 5 mg/kg daily, day 14, high dose by age cohort | reference: baseline | LS mean viral load change | -5.4 log10 copies/mL
C[C@@H](O[C@H]1OCCN(Cc2n[nH]c(=O)[nH]2)[C@H]1c1ccc(F)cc1)c1cc(C(F)(F)F)cc(C(F)(F)F)c1 | Human immunodeficiency virus 1 | viral replication | PBMC, CRF02_AG isolate from Djibouti, R5, NSI |  |  | IC50 | 11700 nM

Repeated from above:
SMILES | tested on | assay | test system | conditions | how to read | quantity | value
CC[C@@H](C)[C@@H](NC(=O)[C@@H](Cc1ccc(O)cc1)NC(=O)[C@H]1CCCN1C(=O)[C@@H](CCCNC(=N)N)NC(=O)[C@H](N)Cc1c[nH]cn1)C(=O)N[C@H](C)C(=O)N[C@H](Cc1c[nH]cn1)C(=O)N[C@H](CCCNC(=N)N)C(=O)N[C@H](CCCCNC(=O)c1cccc(S(=O)(=O)F)c1)C(=O)N[C@H](Cc1ccc(O)cc1)C(=O)N[C@H](CO)C(=O)N[C@H](Cc1ccccc1)C(N)=O |  | ex vivo flow cytometry | GL261-Luc brain tumour mice, cervical lymph node | dose not given |  | IFN-γ+ CD8+ T cell frequency | 8.94% and 9.18% and 9.66% and 9.35%
OC(Cn1cncn1)(Cn1cncn1)c1ccc(F)cc1F | Saccharomyces cerevisiae | cell growth | Pdr5 deleted, Cdr1 overexpressed | 2^6.644 µg/mL |  | OD600 | 0.072 and 0.114 and 0.143
CCCCC1(CCCC)CN(c2ccccc2)c2cc(SC)c(OCC(=O)N[C@@H](C(=O)NCC(=O)O)c3ccccc3)cc2S(=O)(=O)C1 |  | refers to: LDL cholesterol | human, serum | 5 mg once daily, day 2 |  | serum LDL-C | 121 mg/dL
